Results pooled from the literature.
Compare with care: the assays were run in different laboratories.

FC(F)(F)c1ccc(CNc2ccc(Cc3c[nH]c4ncc(Cl)cc34)cn2)cn1 — patients with treatment-related adverse event (item: hair colour changes; patients with TGCT; oral, 1000 mg/day, grade 3 or higher): 0%
CNC(=O)c1ccc(-c2cnc3ncc(Cc4ccc5ncccc5c4)n3n2)cc1F — patients with adverse event (item: Diarrhea; cancer patients; oral, dose not given, dose escalation, grade 3-4): 0%
O=C(Nc1nc2cccc(-c3ccc(CN4CCS(=O)(=O)CC4)cc3)n2n1)C1CC1 — patients with adverse event (item: angina pectoris; rheumatoid arthritis patients; oral, 75 mg once daily, 4 weeks, any relatedness): 0%
Cc1cc(NC2CCN(C(=O)OC3CCN(C(=O)/C=C/CN(C)C)C3)CC2)n2ncc(C(C)C)c2n1 (stereo not drawn) — patients with adverse event (Phase I dose escalation CTCAE v4.0, item: AST increased; patients with advanced solid tumours; dose not given, QD dosing any grade): 16%
C[C@@H](c1ccc2nccn2c1)n1nnc2ncc(-c3cnn(C)c3)nc21 — patients with adverse events (item: treatment-related grade ≥3 Fatigue; EGFR-mutant MET-altered NSCLC; oral, dose not given, all): 1%
CCOc1c([C@H](C)n2nc(C)c3c(N)ncnc32)cc(Cl)c(F)c1[C@@H]1CNC(=O)C1 — patients (item: QTcF change ≤30 ms; previously treated B-cell malignancy; oral, 20 mg once daily, baseline QTcF ≤450 ms; baseline: baseline): 100%
COc1cc(Nc2ncc3c(n2)-c2ccc(Cl)cc2C(c2c(F)cccc2OC)=NC3)ccc1C(=O)O — patients with adverse event (item: Dyspnea, all grades; cancer patients, phase 1/2; oral, dose not given, together with: pembrolizumab): 17%
COc1ccc([C@@H](O)c2cc(-c3ncnc4cc(N5CCOCC5)ccc34)c(F)cc2Cl)nn1 — patients with drug-related AE (item: Diarrhea; locally advanced rectal cancer patients; dose not given, all dose groups, together with: capecitabine plus radiotherapy): 58%
C[C@@H](Nc1cc(F)cc(F)c1)c1cc(C(=O)N(C)C)cc2c(=O)cc(N3CCOCC3)oc12 — patients discontinuing for AE (CTCAE v4, item: deep vein thrombosis; patients with advanced solid tumours; oral, dose not given, phase I dose expansion): 0%

For quick reference, copied from above:
Cc1cc(NC2CCN(C(=O)OC3CCN(C(=O)/C=C/CN(C)C)C3)CC2)n2ncc(C(C)C)c2n1 (stereo not drawn) — patients with adverse event (Phase I dose escalation CTCAE v4.0, item: AST increased; patients with advanced solid tumours; dose not given, QD dosing any grade): 16%
